# Measurements gathered from unrelated publications.
# Protocols differ between the studies behind these lines. Numbers after ± are the reported error.
# TMPRSS2: Transmembrane protease serine 2 (TMPRSS2, Homo sapiens, UniProt O15393)
# TMPRSS11D: Transmembrane protease serine 11D (TMPRSS11D, Homo sapiens, UniProt O60235)
# FGFR1: Fibroblast growth factor receptor 1 (FGFR1, Homo sapiens, UniProt P11362)
# AGTR1: Type-1 angiotensin II receptor (AGTR1, Homo sapiens, UniProt P30556)
SMILES,target,test,system,conditions,scale,inhibition
O=C(c1ccncc1)N1N=C2/C(=C/c3ccc(Br)cc3)CCCC2C1c1ccc(Br)cc1 (centres unmarked),"PTGS2 (Homo sapiens, UniProt P35354)",enzyme activity,,concentration not given,,86.5%
COc1cc(C(=O)NC2CCC(N3CCN(CC4CCC5(CCCC5)C4)CC3)CC2)c(F)cc1Nc1ncc2c(n1)N(C1CCCC1(F)F)CC(F)(F)C(=O)N2C (centres unmarked),"EPHA8 (Homo sapiens, UniProt P29322)","cell-free assay, TR-FRET",,10 µM,,0.73%
NCc1ccc(NC(=O)c2ccc3ccccc3c2O)cc1,TMPRSS2,"enzyme activity, inhibitor, fluorescence",,10 µM,,76.8%
Cc1noc(NS(=O)(=O)c2ccc(NC(=O)c3cc(-c4cccc(Cl)c4)nc4ccccc34)cc2)c1C,"PPIA (Homo sapiens, UniProt P62937)","enzyme activity, inhibitor",,10 µM,,> 50%
CCOC(=O)c1c(NC(=O)CCl)sc2c1CCC(c1ccccc1)C2 (centres unmarked),"LDHA (Homo sapiens, UniProt P00338)","enzyme activity, inhibitor, fluorescence",,100 µg/mL,,46.8%
Cc1ccc(C(=O)Nc2ccc(CN)cc2)c(O)c1,"Plasminogen (PLG, Homo sapiens, UniProt P00747)","enzyme activity, inhibitor",,10 µM,,> 70%
CC(C)Oc1cccc(NC(=O)CCCN2C(=O)c3ccccc3C2=O)c1,"Indole-3-acetic acid-amido synthetase GH3.8 (GH3.8, Oryza sativa subsp. japonica, UniProt Q0D4Z6)","enzyme activity, inhibitor",Oryza sativa,concentration not given,,inhibited
COc1ccc2ccc(C(=O)Nc3ccc(CN)cc3)c(O)c2c1,TMPRSS11D,"enzyme activity, fluorogenic substrate",,"10 µM, with: Boc-VPR-AMC",,< 20%
Fc1ccc(F)c(Cc2c[nH]c3ncc(C(F)(F)F)cc23)c1,FGFR1,"enzyme activity, inhibitor",,1 µM,,78%
Cn1c2ccccc2c2cc(CNCCCn3ccnc3)ccc21,"DRD2 (Homo sapiens, UniProt P14416)","cell-free assay, inhibitor",,10 µM,,13.4%
Oc1c(C(Nc2nc3ccccc3s2)c2ccccc2OCc2ccccc2)ccc2cccnc12 (centres unmarked),"Genome polyprotein, NS2B-NS3 protease (GP1, West Nile virus, UniProt Q9Q6P4)","enzyme activity, inhibitor",,"10 µM, 0.1% CHAPS, with: tetrapeptide substrate",,70.2 ± 1.06%
O=C(Nc1cccnc1)c1ccccc1OCc1ccccc1,"SGMS2 (Homo sapiens, UniProt Q8NHU3)","enzyme activity, inhibitor",,1 µM,,29%
O=C(C[C@@H](Cc1c[nH]c2ccccc12)n1nncc1CNS(=O)(=O)c1ccc(-c2ccccc2)s1)NO,"ERAP2 (Homo sapiens, UniProt Q6P179)","enzyme activity, inhibitor, fluorescence",,100 µM,,67%
CCc1nc2ccc(Cl)cn2c1C(=O)NCc1ccc2oc(-c3ccc(OC(F)(F)F)cc3)nc2c1,"MT-CYB (Bos taurus, UniProt P00157)",complex III activity,bovine heart submitochondrial particles,10 µM,,30%
NCc1ccc(NC(=O)c2ccc3ccccc3c2)cc1,TMPRSS2,"enzyme activity, inhibitor",,"10 µM, with: Boc-QAR-AMC",,< 20%
CC(C)C1=CCC2C(=C1)CCC1C(C)(C(=O)O)CCCC21C (centres unmarked),"RPA1 (Homo sapiens, UniProt P27694)","ssDNA binding, EMSA",,200 µM,,no effect
COc1cccc(C(O)c2c[nH]c3ncc(C(F)(F)F)cc23)c1 (centres unmarked),FGFR1,"enzyme activity, inhibitor",,0.1 µM,,35%
Cc1c(-c2c3c(N)n[nH]c(=O)c3nn2-c2ccccc2)oc2c(Cl)ccc(Cl)c12,FGFR1,"enzyme activity, inhibitor, ELISA",,0.1 µM,,25.9%
CNC(=O)c1ccccc1Oc1nc(Nc2cc(OC)c(OC)c(OC)c2)ncc1Br,"MAP3K11 (Homo sapiens, UniProt Q16584)","enzyme activity, inhibitor",,1 µM,,30 to 50%
Oc1ccc(-c2csc(Cc3ccccc3)n2)c(O)c1,"Semaphorin-3C, with neuropilin-1 (SEMA3C, Homo sapiens, UniProt Q99985)",SEMA3C binding to NRP1,,25 µM,reference: DMSO,inactive
N=C(N)N/N=C1/C=C2C/C(=N\NC(=N)N)C=C2C1,"Mycosin-1 (Mycolicibacterium thermoresistibile, UniProt G7CDQ2)","protease activity, inhibitor, quenched fluorescent peptide",,"150 µM, with: 20 µM fluorogenic peptide substrate",reference: DMSO control,73%
NCc1ccc(NC(=O)c2cc3ccccc3[nH]2)cc1,TMPRSS2,"enzyme activity, inhibitor",,"10 µM, with: Boc-QAR-AMC",,< 20%
CCCCOC(=O)NS(=O)(=O)c1sc(CC(C)C)cc1-c1cc(F)cc(Cn2ccnc2)c1,AGTR1,"ligand displacement, radioligand",,"10 µM, cell membranes",,13%
NCc1ccc(NC(=O)c2ncccc2O)cc1,TMPRSS11D,"enzyme activity, fluorogenic substrate",,"10 µM, with: Boc-VPR-AMC",,< 20%
Cc1cc2c(NC(=O)N[C@@H]3CC(C)(C)Oc4c(OC(F)(F)F)cccc43)cccc2cn1,"Trpv1 (Rattus norvegicus, UniProt O35433)","acid-evoked calcium influx, antagonist","HEK293, rat","11.25 µM, pH 5",,-5.1 ± 9.2%
CCOC(=O)NS(=O)(=O)c1sc(CC(C)C)cc1-c1ccc2c(c1)CN(CC)C(=O)C2,AGTR1,"ligand displacement, radioligand",,"10 µM, cell membranes",,11%
COC(=O)c1cccc(-c2cc(C)c3ncc(C(N)=O)c(N(C)c4cccc(OC)c4)c3c2)c1,"PDEB1 (Trypanosoma brucei, UniProt Q8WQX9)","enzyme activity, inhibitor",,10 µM,,59%
OC(c1cccc(C(F)(F)F)c1)c1c[nH]c2ncc(C(F)(F)F)cc12 (centres unmarked),FGFR1,"enzyme activity, inhibitor",,0.1 µM,,22%
CNS(=O)(=O)c1cc([N+](=O)[O-])ccc1NCCC(C)(C)C,"SLC12A2 (Homo sapiens, UniProt P55011)",chloride influx,HEK293 transfected with SLC12A2,10 µM,reference: DMSO,17.7 ± 3.9%
Cc1nc2ccc(Cc3c[nH]c4ncc(C(F)(F)F)cc34)cc2o1,FGFR1,"enzyme activity, inhibitor",,1 µM,,76%
O=C1N[C@@H](CO)C[C@@H](O)c2ccccc21 (relative stereo),"PARP16 (Homo sapiens, UniProt Q8N5Y8)","enzyme activity, inhibitor",,10 µM,,95%
FC(F)(F)c1cnc2[nH]cc(Cc3cccc(Cl)c3)c2c1,FGFR1,"enzyme activity, inhibitor",,1 µM,,56%
CC(=O)c1cnc(N)nc1N1CC[C@H]1c1nn2ccc(Cl)c2c(=O)n1-c1ccccc1,GABA-A receptor Cl- channel rat,radioligand binding,rat brain cortex homogenate,"10 µM, with: [3H]TBPS",,152%
OC(c1ccc(C(F)(F)F)cc1)c1c[nH]c2ncc(C(F)(F)F)cc12 (centres unmarked),FGFR1,"enzyme activity, inhibitor",,0.1 µM,,14%
CN(C1COC1)C(C)(C)/C=C(\C#N)C(=O)N1CCC[C@H]1Cn1nc(-c2ccc(Oc3ccccc3)cc2F)c2c(N)ncnc21,"ERBB4 (Homo sapiens, UniProt Q15303)",,,"1 µM, mean",,> 90%

# A few entries again:
SMILES,target,test,system,conditions,scale,inhibition
Cc1nc2ccc(Cc3c[nH]c4ncc(C(F)(F)F)cc34)cc2o1,FGFR1,"enzyme activity, inhibitor",,1 µM,,76%
O=C1N[C@@H](CO)C[C@@H](O)c2ccccc21 (relative stereo),"PARP16 (Homo sapiens, UniProt Q8N5Y8)","enzyme activity, inhibitor",,10 µM,,95%
FC(F)(F)c1cnc2[nH]cc(Cc3cccc(Cl)c3)c2c1,FGFR1,"enzyme activity, inhibitor",,1 µM,,56%
CC(=O)c1cnc(N)nc1N1CC[C@H]1c1nn2ccc(Cl)c2c(=O)n1-c1ccccc1,GABA-A receptor Cl- channel rat,radioligand binding,rat brain cortex homogenate,"10 µM, with: [3H]TBPS",,152%
